Assay results pooled from the literature.
A part holds a random share of what one study measured. “And” joins repeats or separate records; there may be more than shown.
Sequence of UniProt Q5VT25 (whole entry, looked up): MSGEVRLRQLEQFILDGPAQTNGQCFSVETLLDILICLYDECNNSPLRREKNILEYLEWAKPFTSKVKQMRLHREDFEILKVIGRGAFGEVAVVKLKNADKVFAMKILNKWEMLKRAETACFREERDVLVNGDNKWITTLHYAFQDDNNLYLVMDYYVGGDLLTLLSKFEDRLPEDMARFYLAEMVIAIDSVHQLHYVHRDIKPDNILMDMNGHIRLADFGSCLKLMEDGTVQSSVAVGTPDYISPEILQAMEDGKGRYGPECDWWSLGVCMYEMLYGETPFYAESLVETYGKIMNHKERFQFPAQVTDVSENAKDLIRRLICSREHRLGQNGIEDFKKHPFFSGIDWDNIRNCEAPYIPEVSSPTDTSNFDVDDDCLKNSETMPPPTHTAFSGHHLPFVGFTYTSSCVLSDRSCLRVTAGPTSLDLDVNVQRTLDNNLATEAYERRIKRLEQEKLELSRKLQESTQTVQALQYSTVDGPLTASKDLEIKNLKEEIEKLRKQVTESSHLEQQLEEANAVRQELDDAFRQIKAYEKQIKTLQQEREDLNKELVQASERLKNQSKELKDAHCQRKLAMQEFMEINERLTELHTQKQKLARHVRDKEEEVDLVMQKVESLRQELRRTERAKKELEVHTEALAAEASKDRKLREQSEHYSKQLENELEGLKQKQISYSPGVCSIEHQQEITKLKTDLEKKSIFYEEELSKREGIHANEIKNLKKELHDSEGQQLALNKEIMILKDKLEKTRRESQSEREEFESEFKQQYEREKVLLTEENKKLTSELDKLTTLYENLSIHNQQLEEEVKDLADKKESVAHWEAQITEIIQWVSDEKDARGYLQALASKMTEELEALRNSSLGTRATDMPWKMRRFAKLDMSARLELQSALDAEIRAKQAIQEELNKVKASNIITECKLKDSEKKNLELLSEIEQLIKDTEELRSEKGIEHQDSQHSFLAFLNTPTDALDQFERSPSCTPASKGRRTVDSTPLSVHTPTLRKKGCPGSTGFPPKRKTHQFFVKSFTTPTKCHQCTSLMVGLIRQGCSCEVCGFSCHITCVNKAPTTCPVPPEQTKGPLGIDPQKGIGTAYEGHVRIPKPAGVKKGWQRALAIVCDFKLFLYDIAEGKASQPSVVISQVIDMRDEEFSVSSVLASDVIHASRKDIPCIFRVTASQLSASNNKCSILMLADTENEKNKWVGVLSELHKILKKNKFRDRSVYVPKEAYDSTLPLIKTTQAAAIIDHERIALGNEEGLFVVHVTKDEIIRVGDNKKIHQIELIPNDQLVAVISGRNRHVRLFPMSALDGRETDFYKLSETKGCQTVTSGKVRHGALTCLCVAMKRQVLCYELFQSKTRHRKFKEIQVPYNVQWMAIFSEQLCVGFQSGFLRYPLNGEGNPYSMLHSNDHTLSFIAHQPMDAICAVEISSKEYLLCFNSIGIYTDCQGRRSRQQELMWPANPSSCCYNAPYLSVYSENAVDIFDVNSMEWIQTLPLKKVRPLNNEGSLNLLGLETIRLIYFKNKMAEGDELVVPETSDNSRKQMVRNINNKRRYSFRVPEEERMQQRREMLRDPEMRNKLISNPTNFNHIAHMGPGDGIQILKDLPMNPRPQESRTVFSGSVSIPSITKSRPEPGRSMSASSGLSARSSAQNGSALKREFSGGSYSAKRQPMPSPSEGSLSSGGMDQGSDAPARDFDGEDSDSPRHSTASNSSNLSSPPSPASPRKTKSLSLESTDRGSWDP
Sequence of UniProt P16591 (whole entry, looked up): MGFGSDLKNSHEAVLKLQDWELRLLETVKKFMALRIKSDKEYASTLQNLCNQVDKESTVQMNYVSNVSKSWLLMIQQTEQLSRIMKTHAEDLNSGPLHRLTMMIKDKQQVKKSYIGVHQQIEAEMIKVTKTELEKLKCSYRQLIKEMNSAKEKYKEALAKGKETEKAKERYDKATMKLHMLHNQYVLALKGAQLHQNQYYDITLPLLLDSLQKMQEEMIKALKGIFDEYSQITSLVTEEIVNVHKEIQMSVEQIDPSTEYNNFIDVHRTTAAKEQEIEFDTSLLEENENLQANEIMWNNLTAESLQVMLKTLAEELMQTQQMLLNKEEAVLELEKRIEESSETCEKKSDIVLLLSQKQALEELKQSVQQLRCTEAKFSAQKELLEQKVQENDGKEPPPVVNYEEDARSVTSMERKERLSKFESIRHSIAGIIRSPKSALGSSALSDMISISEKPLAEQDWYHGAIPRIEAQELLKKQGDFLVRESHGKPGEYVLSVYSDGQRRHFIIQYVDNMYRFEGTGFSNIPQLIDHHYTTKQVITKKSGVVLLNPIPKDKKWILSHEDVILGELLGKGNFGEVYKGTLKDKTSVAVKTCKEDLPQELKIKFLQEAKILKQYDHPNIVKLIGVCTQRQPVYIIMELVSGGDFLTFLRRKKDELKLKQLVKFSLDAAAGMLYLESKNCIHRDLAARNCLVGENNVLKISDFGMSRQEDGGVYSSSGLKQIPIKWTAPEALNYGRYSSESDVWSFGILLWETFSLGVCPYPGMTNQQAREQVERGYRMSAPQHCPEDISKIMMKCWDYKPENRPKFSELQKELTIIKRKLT
Sequence of UniProt P11309 (whole entry, looked up): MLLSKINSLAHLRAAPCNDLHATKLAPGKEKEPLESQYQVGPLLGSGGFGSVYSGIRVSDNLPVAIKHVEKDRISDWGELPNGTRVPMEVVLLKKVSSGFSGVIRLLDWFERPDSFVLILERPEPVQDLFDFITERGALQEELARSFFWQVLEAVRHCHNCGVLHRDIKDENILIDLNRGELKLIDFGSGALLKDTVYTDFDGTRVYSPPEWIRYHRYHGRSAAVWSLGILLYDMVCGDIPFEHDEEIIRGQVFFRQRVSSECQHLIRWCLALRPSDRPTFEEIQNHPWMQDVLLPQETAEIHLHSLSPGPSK
Sequence of UniProt Q8TF76 (whole entry, looked up): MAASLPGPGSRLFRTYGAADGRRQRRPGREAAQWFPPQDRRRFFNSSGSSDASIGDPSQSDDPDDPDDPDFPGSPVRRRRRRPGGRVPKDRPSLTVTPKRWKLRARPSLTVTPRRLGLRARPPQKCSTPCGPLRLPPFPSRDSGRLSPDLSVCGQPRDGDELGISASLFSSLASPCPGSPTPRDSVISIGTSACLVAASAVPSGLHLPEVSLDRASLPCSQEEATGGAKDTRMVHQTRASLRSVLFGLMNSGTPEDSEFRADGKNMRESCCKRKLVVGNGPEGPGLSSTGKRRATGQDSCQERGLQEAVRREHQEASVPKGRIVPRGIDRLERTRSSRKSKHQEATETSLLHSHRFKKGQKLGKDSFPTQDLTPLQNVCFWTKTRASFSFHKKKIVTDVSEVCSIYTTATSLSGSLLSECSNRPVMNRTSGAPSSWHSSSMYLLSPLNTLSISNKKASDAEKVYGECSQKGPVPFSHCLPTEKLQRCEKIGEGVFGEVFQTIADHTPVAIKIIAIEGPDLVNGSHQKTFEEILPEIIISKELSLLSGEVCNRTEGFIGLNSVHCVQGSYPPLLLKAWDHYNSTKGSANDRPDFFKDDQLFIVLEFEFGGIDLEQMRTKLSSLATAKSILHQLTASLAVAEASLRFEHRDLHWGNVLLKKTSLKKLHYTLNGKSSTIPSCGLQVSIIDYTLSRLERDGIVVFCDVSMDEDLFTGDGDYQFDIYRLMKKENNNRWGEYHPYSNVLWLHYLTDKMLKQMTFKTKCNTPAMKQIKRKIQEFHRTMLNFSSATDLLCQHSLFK
Sequence of UniProt O00141 (whole entry, looked up): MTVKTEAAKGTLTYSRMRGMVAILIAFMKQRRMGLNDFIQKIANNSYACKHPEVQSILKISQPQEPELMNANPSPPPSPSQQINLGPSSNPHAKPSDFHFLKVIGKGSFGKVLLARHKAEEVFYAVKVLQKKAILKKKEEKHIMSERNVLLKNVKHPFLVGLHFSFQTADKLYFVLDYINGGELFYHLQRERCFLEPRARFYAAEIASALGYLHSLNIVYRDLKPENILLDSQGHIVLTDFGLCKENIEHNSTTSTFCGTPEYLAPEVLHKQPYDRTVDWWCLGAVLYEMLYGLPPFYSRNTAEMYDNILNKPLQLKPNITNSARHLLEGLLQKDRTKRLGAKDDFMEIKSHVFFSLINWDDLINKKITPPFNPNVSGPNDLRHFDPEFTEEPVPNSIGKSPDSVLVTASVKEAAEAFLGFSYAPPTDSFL
Sequence of UniProt P41240 (whole entry, looked up): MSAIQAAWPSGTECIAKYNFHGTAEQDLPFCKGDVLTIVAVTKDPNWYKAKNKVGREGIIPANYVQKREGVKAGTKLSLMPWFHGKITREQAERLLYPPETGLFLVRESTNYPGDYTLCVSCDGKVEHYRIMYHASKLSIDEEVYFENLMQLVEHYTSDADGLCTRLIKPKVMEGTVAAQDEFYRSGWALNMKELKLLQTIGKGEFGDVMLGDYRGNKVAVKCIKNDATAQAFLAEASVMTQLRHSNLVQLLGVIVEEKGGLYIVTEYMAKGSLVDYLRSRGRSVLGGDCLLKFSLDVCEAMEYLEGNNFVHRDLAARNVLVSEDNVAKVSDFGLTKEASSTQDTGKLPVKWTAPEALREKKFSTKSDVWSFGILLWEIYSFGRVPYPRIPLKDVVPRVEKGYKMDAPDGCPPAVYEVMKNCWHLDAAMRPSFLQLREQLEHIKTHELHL
Sequence of UniProt P53778 (whole entry, looked up): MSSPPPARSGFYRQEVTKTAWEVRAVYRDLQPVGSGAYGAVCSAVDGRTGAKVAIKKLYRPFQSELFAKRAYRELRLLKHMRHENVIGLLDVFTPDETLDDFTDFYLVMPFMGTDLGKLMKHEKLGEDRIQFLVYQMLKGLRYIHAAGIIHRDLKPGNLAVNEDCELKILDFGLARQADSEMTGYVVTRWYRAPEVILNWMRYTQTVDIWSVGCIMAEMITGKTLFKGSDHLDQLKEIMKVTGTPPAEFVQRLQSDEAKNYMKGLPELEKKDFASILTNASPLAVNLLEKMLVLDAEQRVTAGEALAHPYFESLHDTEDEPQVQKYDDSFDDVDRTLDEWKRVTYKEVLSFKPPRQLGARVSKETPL

Set 1 — observed: kinase activity
SMILES: CNc1ncc2cc(-c3cc(OC)cc(OC)c3Cl)c(=O)n(CCc3ccc(NC(=O)C(C#N)=CC(C)(C)N4CCOCC4)cc3)c2n1
target | concentration | inhibition
PIM1 (Homo sapiens, UniProt P11309) | 1 µM | 0%
SGK1 (Homo sapiens, UniProt O00141) | 1 µM | 6%
FER (Homo sapiens, UniProt P16591) | 1 µM | 14%
CSK (Homo sapiens, UniProt P41240) | 0.1 µM | 2%
FLT4 (Homo sapiens, UniProt P35916) | 0.1 µM | 61%
CSNK1G2 (Homo sapiens, UniProt P78368) | 0.1 µM | 0%
TNIK (Homo sapiens, UniProt Q9UKE5) | 1 µM | 2%
CAMK2G (Homo sapiens, UniProt Q13555) | 0.1 µM | -1%
DDR2 (Homo sapiens, UniProt Q16832) | 1 µM | 6%
HASPIN (Homo sapiens, UniProt Q8TF76) | 0.1 µM | -3%
HIPK3 (Homo sapiens, UniProt Q9H422) | 0.1 µM | 3%
MAPK12 (Homo sapiens, UniProt P53778) | 0.1 µM | -3%
TNK1 (Homo sapiens, UniProt Q13470) | 1 µM | 5%
CDC42BPA (Homo sapiens, UniProt Q5VT25) | 1 µM | -2%

Set 2 — medium: plasma; route: oral
SMILES: Cc1ccc(O)c(C)c1-c1cnc2[nH]c(-c3cnc(N4CCC5(CC4)CC(N4CCN(c6ccc(N[C@H]7CCC(=O)NC7=O)cc6F)CC4)CO5)nc3)cc2c1C#N (single isomer, unassigned)
species | dose | bioavailability [%]
male beagle dog | 5 mg/kg | 67.9
female CD-1 mouse | 40 mg/kg | 91.3
male cynomolgus monkey | 10 mg/kg | 20.5
male Sprague-Dawley rat | 20 mg/kg | 166

Set 3
Compound: Cc1ccc2c(c1)OC(O)(C(=O)O)C(=O)N2Cc1ccccc1 (stereo not drawn)
organism | test | test system | conditions | how to read | inhibition
Arabidopsis thaliana | root length | Col-0, seedlings | 100 µg/mL | relative to: water control | 42.4%
Arabidopsis thaliana | hypocotyl length | Col-0, seedlings | 3.125 µg/mL |  | 0.669%
Arabidopsis thaliana | root length | Col-0, seedlings | 3.125 µg/mL | relative to: water control | 10.2%
Arabidopsis thaliana | hypocotyl length | Col-0 | 6.25 µg/mL, 7 days, seed germination, dark |  | 2.2%
Arabidopsis thaliana | root length | Col-0 | 50.0 µg/mL, 7 days, seed germination, dark |  | 29.4%
Arabidopsis thaliana | hypocotyl length | Col-0, seedlings | 25 µg/mL |  | 12.9%
Oryza sativa | fresh weight |  | soil surface spray, 150 g ai/ha, 21 days, pre-emergence crop safety |  | 8.1% and 6% and 7.5%
Arabidopsis thaliana | root length | Col-0 | 12.5 µg/mL, 7 days, seed germination, dark |  | 17%
Eclipta prostrata | fresh weight |  | 150 g ai/ha, post-emergence treatment |  | 60.4% and 55.9% and 54.6%
Arabidopsis thaliana | root length | Col-0, seedlings | 12.5 µg/mL |  | 17%
Arabidopsis thaliana | root length | Col-0 | 25.0 µg/mL, 7 days, seed germination, dark |  | 16.8%
Zea mays | fresh weight |  | soil surface spray, 150 g ai/ha, 21 days, pre-emergence crop safety |  | 9.8% and 12.8% and 13.4%
Alopecurus aequalis | fresh weight |  | 150 g ai/ha, pre-emergence treatment |  | 32.5% and 36.8% and 35.1%
Arabidopsis thaliana | root length | Col-0, seedlings | 6.25 µg/mL |  | 12.4%

Set 4 — cell line: MDA-MB-231; observed: cell viability; method: CellCounting-Lite; concentration: 0.9145 nM; temperature: 37 °C; direction: higher = more viable cells
SMILES | luminescence signal
CCCCOc1nc(NCc2nc3cc(Cl)c(Cl)cc3[nH]2)c2ncn(CC)c2n1 | 628000 a.u. and 670000 a.u. and 459000 a.u.
CCn1cnc2c(NCc3nc4cc(Cl)c(Cl)cc4[nH]3)nc(N3CCN(C(C)=O)CC3)nc21 | 426000 a.u. and 445000 a.u. and 468000 a.u.
CCn1cnc2c(NCc3nc4cc(Cl)c(Cl)cc4[nH]3)nc(N3CCN(c4ccccn4)CC3)nc21 | 631000 a.u. and 602000 a.u. and 594000 a.u.
CCn1cnc2c(NCc3nc4cc(Cl)c(Cl)cc4[nH]3)nc(N3CCN(S(C)(=O)=O)CC3)nc21 | 544000 a.u. and 438000 a.u. and 494000 a.u.
CCn1cnc2c(NCc3nc4cc(Cl)c(Cl)cc4[nH]3)nc(N3CCN(Cc4ccncc4)CC3)nc21 | 450000 a.u. and 425000 a.u. and 468000 a.u.
CC(=O)N1CCN(c2nc(NCc3nc4cc(Cl)c(Cl)cc4[nH]3)c3ncn(C(C)C)c3n2)CC1 | 560000 a.u. and 502000 a.u. and 483000 a.u.
CCn1cnc2c(NCc3nc4cc(Cl)c(Cl)cc4[nH]3)nc(N3CCN(C(=O)[C@H](C)NC(C)=O)CC3)nc21 | 421000 a.u. and 477000 a.u. and 423000 a.u.
Cn1cc(-n2cnc3c(NCc4nc5cc(Cl)c(Cl)cc5[nH]4)nc(N4CCNCC4)nc32)cn1 | 489000 a.u. and 471000 a.u. and 443000 a.u.
CC(=O)N1CCN(c2nc(NCc3nc4cc(Cl)c(Cl)cc4[nH]3)c3ncn(C)c3n2)CC1 | 435000 a.u. and 483000 a.u. and 419000 a.u.
CCn1cnc2c(NCc3nc4ccc(F)c(F)c4[nH]3)nc(N3CCn4ncnc4C3)nc21 | 537000 a.u. and 535000 a.u. and 526000 a.u.

Set 5 — method: DNA microarray
SMILES: COCC1CC2C(CCC3(C)C(O)CCC23)c2ccc(O)cc21 (stereo not drawn)
cell line | item | concentration | notes | relative to | log2 fold change
PANC-1 | ORC1L | concentration not given | lower dose arm | untreated cells | -0.507
SK-OV-3 | MCM6 | concentration not given | higher dose arm | untreated cells | -0.352
A549 | ORC1L | 50 µM |  | untreated cells | -0.529
SK-OV-3 | RFC3 | concentration not given | higher dose arm | untreated cells | -0.242
SK-OV-3 | OLIG2 | concentration not given | lower dose arm | untreated cells | 3.35
A549 | IL23R | concentration not given |  | untreated cells | 4.11
PANC-1 | CCL8 | concentration not given | lower dose arm | untreated cells | 5.02
PANC-1 | GTSE1 | concentration not given |  | untreated cells | -1.3
A549 | AURKA | 100 µM |  | untreated cells | -0.987
SK-OV-3 | CDC25B | concentration not given | lower dose arm | untreated cells | 0.176
PANC-1 | DNER | concentration not given |  | untreated cells | 6.09
A549 | GINS1 | 50 µM |  | untreated cells | -0.444
PANC-1 | MCM10 | concentration not given | higher dose arm | untreated cells | -1.04
PANC-1 | ISG20L1 | concentration not given | lower dose arm | untreated cells | -0.0678
A549 | RFC3 | 50 µM |  | untreated cells | -0.273
A549 | MOG mRNA | concentration not given |  | control | 3.87
PANC-1 | CCL11 | concentration not given | lower dose arm | untreated cells | 0
A549 | MCM10 | 50 µM |  | untreated cells | -0.365
PANC-1 | DNER | concentration not given | lower dose arm | untreated cells | 6.11
PANC-1 | ADAMTS8 | concentration not given | higher dose arm | untreated cells | -0.308
A549 | IL28A | 50 µM |  | untreated cells | 1.41
PANC-1 | CCL22 | concentration not given | higher dose arm | untreated cells | 0
PANC-1 | GADD45A | concentration not given | higher dose arm | untreated cells | 0.351

Set 6
Compound: Cc1ncsc1-c1ccc(C(CO)NC(=O)C2CC(O)CN2C(=O)C(C(C)C)n2cc(-c3ccc(COc4c(-c5c(C)c(F)cc6[nH]ncc56)c(C5CC5)cc5c(N6CC7CC6CN7)nc(OC6CCOCC6)nc45)cc3)nn2)cc1 (stereo not drawn)
cell line | species | dose | time | tumour volume
PK-1 xenograft | mouse | 30 mg/kg twice weekly | day 0 | 142 mm3 and 166 mm3 and 225 mm3 and 146 mm3 and 152 mm3
 | mouse, PK-59 xenograft | 1 mg/kg | day 4 | 465 mm3 and 390 mm3 and 504 mm3 and 469 mm3 and 427 mm3
 | mouse, lung LXFA sample A PDX | 10 mg/kg twice weekly | day 6 | 223 mm3 and 128 mm3 and 78.3 mm3 and 93.9 mm3 and 68.7 mm3 and 164 mm3 and 286 mm3 and 123 mm3
PK-1 xenograft | mouse | 30 mg/kg twice weekly | day 14 | 135 mm3 and 173 mm3 and 172 mm3 and 96.9 mm3 and 149 mm3
HPAC xenograft | mouse | 30 mg/kg twice weekly | day 11 | 233 mm3 and 250 mm3 and 264 mm3 and 224 mm3 and 354 mm3
 | mouse, PK-59 xenograft | 10 mg/kg | day 10 | 313 mm3 and 351 mm3 and 239 mm3 and 339 mm3 and 413 mm3
GP2d xenograft | mouse | 30 mg/kg once weekly | day 11 | 195 mm3 and 246 mm3 and 232 mm3 and 168 mm3 and 145 mm3
